Results gathered from unrelated publications.
Numbered parts are unrelated; each lists some results of a single study. “And” joins repeats or separate records; there may be more than shown.
UniProt O95819, sequence (whole entry, looked up): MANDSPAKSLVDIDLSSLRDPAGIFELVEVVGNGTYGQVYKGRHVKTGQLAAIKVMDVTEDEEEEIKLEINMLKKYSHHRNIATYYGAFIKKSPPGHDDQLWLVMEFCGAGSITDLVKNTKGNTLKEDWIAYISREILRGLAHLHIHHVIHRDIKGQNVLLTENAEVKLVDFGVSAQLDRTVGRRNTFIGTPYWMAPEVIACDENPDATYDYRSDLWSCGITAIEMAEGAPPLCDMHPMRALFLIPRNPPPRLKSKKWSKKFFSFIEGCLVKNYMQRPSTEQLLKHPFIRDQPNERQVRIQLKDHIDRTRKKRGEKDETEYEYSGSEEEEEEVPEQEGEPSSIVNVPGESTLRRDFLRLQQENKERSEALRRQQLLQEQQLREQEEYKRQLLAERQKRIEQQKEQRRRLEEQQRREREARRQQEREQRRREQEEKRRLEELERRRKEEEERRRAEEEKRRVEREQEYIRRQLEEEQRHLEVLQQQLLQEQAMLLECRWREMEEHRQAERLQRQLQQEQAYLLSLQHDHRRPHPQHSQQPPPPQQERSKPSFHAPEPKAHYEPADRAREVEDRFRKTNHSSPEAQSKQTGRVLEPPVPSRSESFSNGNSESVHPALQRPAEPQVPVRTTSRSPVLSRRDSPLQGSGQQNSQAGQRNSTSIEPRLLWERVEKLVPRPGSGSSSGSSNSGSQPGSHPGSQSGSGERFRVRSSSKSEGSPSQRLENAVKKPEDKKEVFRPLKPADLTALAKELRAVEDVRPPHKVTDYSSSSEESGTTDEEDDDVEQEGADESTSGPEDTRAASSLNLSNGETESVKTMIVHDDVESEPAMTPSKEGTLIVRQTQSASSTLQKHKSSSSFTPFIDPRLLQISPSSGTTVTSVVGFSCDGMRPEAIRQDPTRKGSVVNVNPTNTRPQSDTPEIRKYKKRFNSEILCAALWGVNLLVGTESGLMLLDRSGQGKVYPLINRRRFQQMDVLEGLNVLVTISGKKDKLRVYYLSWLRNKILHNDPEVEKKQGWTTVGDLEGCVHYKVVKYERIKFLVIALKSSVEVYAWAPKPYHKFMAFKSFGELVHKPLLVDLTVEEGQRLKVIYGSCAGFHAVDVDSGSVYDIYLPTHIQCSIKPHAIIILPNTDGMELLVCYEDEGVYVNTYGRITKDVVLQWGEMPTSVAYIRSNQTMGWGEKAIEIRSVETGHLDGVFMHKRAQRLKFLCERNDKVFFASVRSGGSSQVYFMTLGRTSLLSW
UniProt O75582, sequence (whole entry, looked up): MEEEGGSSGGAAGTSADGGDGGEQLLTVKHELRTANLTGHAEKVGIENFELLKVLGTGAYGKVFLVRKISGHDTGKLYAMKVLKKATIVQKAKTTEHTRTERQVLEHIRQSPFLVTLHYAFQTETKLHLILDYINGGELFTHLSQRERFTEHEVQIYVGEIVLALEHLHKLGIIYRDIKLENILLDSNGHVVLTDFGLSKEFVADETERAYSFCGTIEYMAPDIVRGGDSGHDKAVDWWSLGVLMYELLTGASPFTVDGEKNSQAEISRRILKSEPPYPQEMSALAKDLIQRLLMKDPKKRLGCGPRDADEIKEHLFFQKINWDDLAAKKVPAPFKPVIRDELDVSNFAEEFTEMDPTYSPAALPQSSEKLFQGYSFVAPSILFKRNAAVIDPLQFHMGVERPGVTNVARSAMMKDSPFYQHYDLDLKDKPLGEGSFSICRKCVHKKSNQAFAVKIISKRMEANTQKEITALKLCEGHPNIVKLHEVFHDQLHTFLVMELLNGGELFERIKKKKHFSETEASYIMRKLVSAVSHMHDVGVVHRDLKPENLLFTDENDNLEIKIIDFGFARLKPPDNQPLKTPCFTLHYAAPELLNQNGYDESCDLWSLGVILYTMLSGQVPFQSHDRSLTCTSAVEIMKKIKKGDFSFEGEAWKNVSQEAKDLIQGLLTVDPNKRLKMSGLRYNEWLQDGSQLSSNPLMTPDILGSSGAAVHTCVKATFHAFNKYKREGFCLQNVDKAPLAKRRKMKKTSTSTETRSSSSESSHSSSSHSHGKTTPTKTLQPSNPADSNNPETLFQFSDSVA
UniProt O43283, sequence (whole entry, looked up): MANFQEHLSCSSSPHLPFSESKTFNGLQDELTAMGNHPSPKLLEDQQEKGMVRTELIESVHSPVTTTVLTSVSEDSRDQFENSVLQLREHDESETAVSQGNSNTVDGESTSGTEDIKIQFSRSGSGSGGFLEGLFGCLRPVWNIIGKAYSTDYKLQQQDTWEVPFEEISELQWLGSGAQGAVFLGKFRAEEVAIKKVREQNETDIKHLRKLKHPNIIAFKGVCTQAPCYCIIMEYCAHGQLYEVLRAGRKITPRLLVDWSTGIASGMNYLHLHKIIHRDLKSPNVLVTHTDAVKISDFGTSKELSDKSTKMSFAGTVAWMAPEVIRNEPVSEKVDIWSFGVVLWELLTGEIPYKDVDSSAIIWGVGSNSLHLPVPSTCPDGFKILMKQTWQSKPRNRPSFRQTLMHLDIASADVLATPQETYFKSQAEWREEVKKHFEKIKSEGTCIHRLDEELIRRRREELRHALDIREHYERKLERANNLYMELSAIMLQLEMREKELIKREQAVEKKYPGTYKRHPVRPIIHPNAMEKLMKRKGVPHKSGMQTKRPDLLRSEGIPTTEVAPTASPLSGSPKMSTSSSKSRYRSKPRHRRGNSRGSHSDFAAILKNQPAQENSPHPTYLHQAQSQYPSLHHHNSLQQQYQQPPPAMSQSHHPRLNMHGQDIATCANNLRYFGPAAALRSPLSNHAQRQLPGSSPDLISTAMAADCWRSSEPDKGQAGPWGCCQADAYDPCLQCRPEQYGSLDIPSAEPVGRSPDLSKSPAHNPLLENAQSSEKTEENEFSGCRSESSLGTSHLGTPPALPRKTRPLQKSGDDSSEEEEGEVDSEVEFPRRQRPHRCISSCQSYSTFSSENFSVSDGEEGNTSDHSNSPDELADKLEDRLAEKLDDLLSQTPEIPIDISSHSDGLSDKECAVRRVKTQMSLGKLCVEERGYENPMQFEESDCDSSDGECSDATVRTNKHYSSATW
UniProt Q02779, sequence (whole entry, looked up): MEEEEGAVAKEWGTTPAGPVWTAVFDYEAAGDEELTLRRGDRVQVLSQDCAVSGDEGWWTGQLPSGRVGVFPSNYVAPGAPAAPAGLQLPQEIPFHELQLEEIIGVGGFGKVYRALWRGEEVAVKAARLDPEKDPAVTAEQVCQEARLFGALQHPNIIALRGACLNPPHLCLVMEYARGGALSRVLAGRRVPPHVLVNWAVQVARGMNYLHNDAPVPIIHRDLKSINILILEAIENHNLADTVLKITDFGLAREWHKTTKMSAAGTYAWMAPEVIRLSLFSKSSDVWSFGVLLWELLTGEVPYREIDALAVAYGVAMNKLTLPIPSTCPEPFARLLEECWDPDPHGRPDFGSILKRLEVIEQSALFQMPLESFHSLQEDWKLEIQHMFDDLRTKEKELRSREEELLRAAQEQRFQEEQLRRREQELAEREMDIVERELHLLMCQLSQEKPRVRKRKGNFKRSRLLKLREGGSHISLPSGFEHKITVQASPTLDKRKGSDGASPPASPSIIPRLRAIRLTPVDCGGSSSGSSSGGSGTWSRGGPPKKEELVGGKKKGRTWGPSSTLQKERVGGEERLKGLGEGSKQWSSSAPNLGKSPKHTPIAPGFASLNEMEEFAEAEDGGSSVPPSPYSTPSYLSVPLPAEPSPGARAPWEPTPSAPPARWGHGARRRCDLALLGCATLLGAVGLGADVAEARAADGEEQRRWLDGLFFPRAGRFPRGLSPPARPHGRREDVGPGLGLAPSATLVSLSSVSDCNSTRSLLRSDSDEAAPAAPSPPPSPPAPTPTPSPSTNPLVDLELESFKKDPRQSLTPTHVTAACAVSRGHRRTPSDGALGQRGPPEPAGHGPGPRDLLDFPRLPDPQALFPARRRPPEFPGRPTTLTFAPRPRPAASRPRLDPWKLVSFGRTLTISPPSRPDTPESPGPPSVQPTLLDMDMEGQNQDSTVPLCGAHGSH

Set 1 — effect on: RNA clamping; technique: fluorescence polarization; concentration: concentration not given; notes: mean of two replicates; added: FAM-labelled poly r(AG)8 RNA; measurement: fluorescence polarization change
Target: Eukaryotic initiation factor 4A-I (EIF4A1, Homo sapiens, UniProt P60842)
UniProt P60842, sequence (whole entry, looked up): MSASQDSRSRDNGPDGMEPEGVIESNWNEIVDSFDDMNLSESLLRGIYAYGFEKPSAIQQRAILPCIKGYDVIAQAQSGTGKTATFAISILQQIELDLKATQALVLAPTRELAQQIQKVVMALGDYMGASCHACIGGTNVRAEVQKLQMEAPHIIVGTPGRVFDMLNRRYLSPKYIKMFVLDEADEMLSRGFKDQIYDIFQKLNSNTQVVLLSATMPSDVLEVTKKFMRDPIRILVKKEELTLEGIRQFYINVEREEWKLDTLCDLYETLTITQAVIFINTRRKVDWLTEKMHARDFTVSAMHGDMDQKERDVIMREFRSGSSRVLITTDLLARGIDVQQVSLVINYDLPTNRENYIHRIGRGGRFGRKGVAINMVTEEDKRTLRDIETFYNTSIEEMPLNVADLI
COc1ccc([C@@]23Oc4cc(O)cc(OC)c4[C@]2(O)[C@H](O)[C@H](C(=O)c2ccco2)[C@H]3c2ccccc2)cc1: 11.2 mP
COc1ccc([C@@]23Oc4cc(OC)cc(OC)c4[C@]2(O)[C@H](O)[C@H](C(=O)c2ccco2)[C@H]3c2ccc(Br)cc2)cc1: 6.3 mP
COC(=O)[C@H]1C(=O)[C@@]2(OC)c3c(OC)cc(OC)cc3O[C@@]2(c2ccc(OC)cc2)[C@@H]1c1ccccc1: 7.1 mP
COc1ccc([C@@]23Oc4cc(OS(=O)(=O)c5ccc(C)cc5)cc(OC)c4[C@]2(O)c2nc(-c4ccccc4)n(Cc4ccccc4)c(=O)c2[C@H]3c2ccccc2)cc1: -4.2 mP
COC(=O)[C@@H]1[C@@H](c2ccccc2)[C@]2(c3ccc(OC)cc3)Oc3cc(OC)cc(OC)c3[C@@]23NC(C(F)(F)F)=N[C@@]13O: 27.2 mP
COc1cc(OC)c2c(c1)O[C@@]1(c3ccc(Br)cc3)[C@H](c3ccccc3)[C@@H](C(=O)N(C)OC)[C@@H](O)[C@@]21O: 68.1 mP
COc1ccc([C@@]23Oc4cc(OC)cc(OC)c4[C@]2(O)c2nc(C4CCCCC4)[nH]c(=O)c2[C@H]3c2ccccc2)cc1: 42.2 mP
COC(=O)[C@H]1C(=O)[C@@]2(NCc3cccnc3)c3c(OC)cc(OC)cc3O[C@@]2(c2ccc(OC)cc2)[C@@H]1c1ccccc1: -4 mP
CONC(=O)[C@H]1[C@@H](O)[C@@]2(O)c3c(OC)cc(O)cc3O[C@@]2(c2ccc(Br)cc2)[C@@H]1c1ccccc1: 67.5 mP
COc1ccc([C@]23[C@H](c4ccccc4)C[C@@H](O)[C@@]2(O)c2c(F)cccc2N3C)cc1: 3.7 mP
COc1cc(OC)c2c(c1)O[C@@]1(c3ccc(OC)c(O)c3)[C@H](c3ccccc3)[C@@H](C(=O)N(C)OC)[C@@H](O)[C@@]21O: 61.3 mP
COC(=O)CCCn1c(-c2ccccc2)nc2c(c1=O)[C@H](c1ccccc1)[C@]1(c3ccc(OC)cc3)Oc3cc(OC)cc(OC)c3[C@]21O: 12.9 mP

Set 2 — effect on: cell-free assay; technique: competition with immobilised ligand; concentration: 1 µM; measurement: remaining binding
SMILES: Nc1cnc(N2CCc3cc(S(=O)(=O)Nc4c(F)cc(Cl)cc4F)cc(N4CCCC4=O)c32)nc1
PRKD1 (Homo sapiens, UniProt Q15139): 83%
Ribosomal protein S6 kinase alpha-5, N-terminal kinase domain (RPS6KA5, Homo sapiens, UniProt O75582): 95%
COQ8B (Homo sapiens, UniProt Q96D53): 100%
PIK3CG (Homo sapiens, UniProt P48736): 81%
MAP3K10 (Homo sapiens, UniProt Q02779): 75%
MAP2K5 (Homo sapiens, UniProt Q13163): 84%
MAP3K13 (Homo sapiens, UniProt O43283): 100%
MAP3K9 (Homo sapiens, UniProt P80192): 100%
Tyrosine-protein kinase JAK2, JH1 (JAK2, Homo sapiens, UniProt O60674): 100%
GRK7 (Homo sapiens, UniProt Q8WTQ7): 99%
PRKCH (Homo sapiens, UniProt P24723): 80%
BTK (Homo sapiens, UniProt Q06187): 100%
MAPK7 (Homo sapiens, UniProt Q13164): 100%
MAST1 (Homo sapiens, UniProt Q9Y2H9): 97%
CAMKK1 (Homo sapiens, UniProt Q8N5S9): 100%
SIK3 (Homo sapiens, UniProt Q9Y2K2): 83%
MAP4K4 (Homo sapiens, UniProt O95819): 61%
Ribosomal protein S6 kinase alpha-1, C-terminal kinase domain (RPS6KA1, Homo sapiens, UniProt Q15418): 100%
RET (Homo sapiens, UniProt P07949, V804L): 99%

Set 3 — cell line: mouse MPNST tumor cells; technique: high-content nuclear imaging; refers to: cell number; concentration: 10 µM; time: 12 h; notes: mean of 2 replicates; relative to: plate mean; direction: higher = more cells; measurement: nuclei count
O=C(O)c1n[nH]c2c1CC1CC21 (centres unmarked): 2.57 z-score
O=C(Nc1ccccc1)OCC(CN1CCCCC1)OC(=O)Nc1ccccc1 (centres unmarked): 1.7 z-score
COc1cc(Br)c(S(=O)(=O)Nc2ccc(C(F)(F)F)c(OC3CCN(C)C3)c2)cc1OC (centres unmarked): 2.96 z-score
CC(Oc1c(Cl)cccc1Cl)C1=NCCN1 (centres unmarked): 0.00886 z-score
C#CCN[C@@H]1CCc2ccccc21: 0.924 z-score and 0.49 z-score
Cc1cn([C@H]2C=C[C@@H](CO)O2)c(=O)[nH]c1=O: 0.792 z-score and 0.309 z-score
O=c1onc2n1-c1cc(Br)ccc1OC2: 0.27 z-score
N=c1nc(N2CCCCC2)cc(N)n1O: 1.1 z-score and 2.51 z-score
CC[S+]([O-])c1nc(-c2cccc(OCc3ccccc3)c2)cc(C(F)(F)F)n1 (centres unmarked): -3.22 z-score
COc1cc(Oc2ccnc3cc(OC)c(OC)cc23)ccc1NC(=O)NC(C)c1nccs1 (centres unmarked): 1.27 z-score
O=C(Nc1cccnn1)N1CCC(=Cc2cccc(Oc3ccc(C(F)(F)F)cn3)c2)CC1: -0.116 z-score
Cc1ccc(S(=O)(=O)NC2c3ccccc3Oc3ccccc32)cc1: 0.0552 z-score

Set 4 — effect on: enzyme activity; action: inhibitor; concentration: 0.5 µM; relative to: control; measurement: remaining activity
Target: Serine/threonine-protein kinase VRK1 (VRK1, Homo sapiens, UniProt Q99986)
UniProt Q99986, sequence (whole entry, looked up): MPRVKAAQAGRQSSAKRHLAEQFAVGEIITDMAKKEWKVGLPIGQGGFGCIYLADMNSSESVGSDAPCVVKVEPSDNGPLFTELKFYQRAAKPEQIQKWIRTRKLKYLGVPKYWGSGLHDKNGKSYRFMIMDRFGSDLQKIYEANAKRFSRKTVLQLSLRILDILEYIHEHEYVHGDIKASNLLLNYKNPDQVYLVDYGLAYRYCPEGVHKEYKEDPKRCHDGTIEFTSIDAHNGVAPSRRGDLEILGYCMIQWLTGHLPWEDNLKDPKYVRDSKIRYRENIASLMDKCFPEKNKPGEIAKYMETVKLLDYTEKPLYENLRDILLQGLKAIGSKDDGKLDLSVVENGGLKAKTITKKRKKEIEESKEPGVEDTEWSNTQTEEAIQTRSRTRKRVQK
NC(=O)c1ccc(N(C(N)=O)c2c(F)cccc2F)nc1-c1ccc(F)cc1F: 104%
O=C1NC(=O)C(c2c[nH]c3ccccc23)=C1c1c[nH]c2ccccc12: 109%
CCCC(=O)Oc1ccc2[nH]c(C(=O)c3cc4ccccc4[nH]3)cc2c1: 85.9%
Cc1cc(Nc2nc(-c3ccccc3)nc3ccccc23)n[nH]1: 81%
Cc1cncc2cccc(S(=O)(=O)N3CCCN(C(=O)CN)C[C@@H]3C)c12: 102%
COc1ccc(S(=O)(=O)N(CCO)c2ccccc2CN(C)CC=Cc2ccc(Cl)cc2)cc1: 96.4%
Fc1ccc(-c2nc3n(c2-c2ccncc2)CCS3)cc1: 86.8%
CC[n+]1c(/C=C/N(C)c2ccccc2)n(-c2ccccc2)c2ccc(-c3nc4ccccc4s3)cc21: 90.9%
CC(C)(C)n1nc(Cc2cccc3ccccc23)c2c(N)ncnc21: 85.5%
Cc1ccc(NC2=CC(=O)c3sc(C)nc3C2=O)cc1: 108%
N#CC(=C(N)Sc1ccc(N)cc1)c1ccccc1C(F)(F)F: 100%
CC#CC(=O)Nc1cc2c(Nc3ccc(F)c(Cl)c3)ncnc2cn1: 87.8%
COc1cc(Nc2c(C#N)cnc3cc(OCCCN4CCN(C)CC4)c(OC)cc23)c(Cl)cc1Cl: 100%
Oc1ccc(Nc2nc(-c3ccc(Cl)cc3)cs2)cc1: 99.8%
CC(=O)c1ccc(N2CCOCC2)cc1O: 98.1%
CCc1[nH]c(-c2ccc(OC)cc2)nc1-c1ccncc1: 104%
O=C1Cc2c([nH]c3ccc([N+](=O)[O-])cc23)-c2ccccc2N1: 90.8%
Nc1nccc(-c2c(-c3ccc(F)cc3)ncn2C2CCNCC2)n1: 83.4%
CSc1nc(-c2ccnc(N[C@@H](C)c3ccccc3)c2)c(-c2ccc(F)cc2)[nH]1 (racemic): 94.1%
Nc1ncnc2c1cnn2-c1ccccc1: 84.4%
Nc1nc(Nc2ccc(S(N)(=O)=O)cc2)nn1C(=O)c1c(F)cccc1F: 90.4%
O=S(=O)(NCCNC/C=C/c1ccc(Br)cc1)c1cccc2cnccc12: 80.1%

Excerpt of the above (set 1):
COc1ccc([C@@]23Oc4cc(OS(=O)(=O)c5ccc(C)cc5)cc(OC)c4[C@]2(O)c2nc(-c4ccccc4)n(Cc4ccccc4)c(=O)c2[C@H]3c2ccccc2)cc1: -4.2 mP
COC(=O)[C@@H]1[C@@H](c2ccccc2)[C@]2(c3ccc(OC)cc3)Oc3cc(OC)cc(OC)c3[C@@]23NC(C(F)(F)F)=N[C@@]13O: 27.2 mP
COc1cc(OC)c2c(c1)O[C@@]1(c3ccc(Br)cc3)[C@H](c3ccccc3)[C@@H](C(=O)N(C)OC)[C@@H](O)[C@@]21O: 68.1 mP
COc1ccc([C@@]23Oc4cc(OC)cc(OC)c4[C@]2(O)c2nc(C4CCCCC4)[nH]c(=O)c2[C@H]3c2ccccc2)cc1: 42.2 mP
COC(=O)[C@H]1C(=O)[C@@]2(NCc3cccnc3)c3c(OC)cc(OC)cc3O[C@@]2(c2ccc(OC)cc2)[C@@H]1c1ccccc1: -4 mP
